Measurements collected from several papers.
Every numbered part comes from another study and shows a few of its results, in no order. Substitutions count along the parent as printed.

Sample 1
Target: ABI1, truncated, D143A, DHFR fusion (Arabidopsis thaliana)
Technique: DHFR PCA, deep sequencing
Sample: yeast
Setting: methotrexate growth selection, single substitutions
Together with: (+)-ABA 17 µM
Relative to: wild-type fitted maximum
Reading: higher = stronger binding
Endpoint: relative binding score
Starting sequence: PYL1, truncated, DHFR fusion (Arabidopsis thaliana); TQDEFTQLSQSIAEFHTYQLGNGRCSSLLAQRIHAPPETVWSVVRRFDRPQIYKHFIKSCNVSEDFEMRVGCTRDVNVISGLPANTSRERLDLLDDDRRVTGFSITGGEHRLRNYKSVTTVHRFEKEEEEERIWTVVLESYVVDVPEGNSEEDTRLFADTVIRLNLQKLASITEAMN
S140D: -21.3%
V142F: 30.8%
V143P: -0.175%
L28Q: 40%
S9D: 78.3%
K126E: 88.9%
V43W: 6.5%
P50S: 5.71%
R155T: 72.5%
R113P: 47.4%
R155Q: 67.4%
H122M: -1.53%
R46H: 43.9%
Q2Y: 76%

Sample 2
Target: Interferon regulatory factor 3, full length, phosphomimetic (IRF3, Homo sapiens, UniProt Q14653, residues 1-427, S386D/S396D/S398D/S402D/T404D/S405D)
Technique: protein-binding microarray
Form: double-stranded DNA, one strand shown
Sample: in vitro
Concentration: 2540 nM top
Setting: 60-bp whole probe
Together with: salmon DNA 0.4 mg/ml
Relative to: random background probes
Reading: higher = stronger binding
Endpoint: fitted relative affinity
All sequences stand within: GCCTAGCAC … GTCTTGATTCGCTTGACGCTGCTG
Construct (chain): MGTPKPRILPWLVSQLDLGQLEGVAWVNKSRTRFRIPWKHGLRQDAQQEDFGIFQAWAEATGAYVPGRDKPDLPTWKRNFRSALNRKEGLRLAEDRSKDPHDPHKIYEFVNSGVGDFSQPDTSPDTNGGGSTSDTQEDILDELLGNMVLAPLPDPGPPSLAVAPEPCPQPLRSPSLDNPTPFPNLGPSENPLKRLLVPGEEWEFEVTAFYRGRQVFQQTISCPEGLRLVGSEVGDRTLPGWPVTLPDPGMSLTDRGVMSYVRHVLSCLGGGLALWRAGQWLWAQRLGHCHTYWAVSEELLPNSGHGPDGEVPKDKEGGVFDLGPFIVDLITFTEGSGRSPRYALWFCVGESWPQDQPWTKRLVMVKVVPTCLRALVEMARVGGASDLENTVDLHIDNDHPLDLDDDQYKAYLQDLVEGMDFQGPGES
TCATATATATATTGTTAGACTGTGCTA: 0.419 z-score
GACGGTTCTGGTTTCGGGACGTGCTAG: 3.82 z-score
GACGGTTTCGGGCTTCGGGACGTGCTA: 3.96 z-score
GACGGTTTACTACTGCTGACGTGCTAG: 1.15 z-score
TTGGTTCTTATCCTTCCCCTCGTGCTA: 0.251 z-score
TTGGGACTGGGACTGGGTTAGTGCTAG: -1.1 z-score
TAATTTTCATTTTCCAAATGGTGCTAG: 5.65 z-score
GACGGACTACTACTGCTGACGTGCTAG: -0.314 z-score
AAGGATTTCAGTTTCTCTTTGTGCTAG: 4.84 z-score
GACCATATCAGTTTCGAGACGTGCTAG: 3.57 z-score
TTAGGACTGGGTAGCGGTTAGTGCTAG: -0.778 z-score
TTAGGTTTCGAATATCGGTTAGTGCTA: 3.76 z-score
TTAGATTTCAGACTGAATTAGTGCTAG: 0.914 z-score
GACGGACCGCTACTGCTGACGTGCTAG: -0.536 z-score
GACGGTTTCGGTATCGGGCCGTGCTAG: 7.94 z-score
TCATGTCTGGAGTCTCTGACTGTGCTA: -0.524 z-score
TCACATTTGGAAAATGAAACTGTGCTA: 1.82 z-score

Sample 3
Target: Histone acetyltransferase KAT6A, both winged helices, GST fusion (KAT6A, Homo sapiens, UniProt Q92794, residues 1-181)
Technique: protein binding microarray
Form: double-stranded DNA, one strand shown
Sample: in vitro
Concentration: not given
Setting: 8-mer, flanks averaged, mean of 2 arrays, mostly near background
Relative to: not given
Reading: higher = stronger binding
Endpoint: E-score
Construct (chain): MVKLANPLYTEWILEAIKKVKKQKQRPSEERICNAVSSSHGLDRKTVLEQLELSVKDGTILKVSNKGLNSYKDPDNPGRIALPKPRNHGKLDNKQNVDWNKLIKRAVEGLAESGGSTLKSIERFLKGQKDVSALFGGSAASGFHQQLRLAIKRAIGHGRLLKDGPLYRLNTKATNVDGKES
GAGACATC: -0.121
CTTTCCTA: -0.111
AAGAACTT: -0.0418
CTGTCAAA: -0.00618
AGAATAGA: -0.209
AAGGTCGC: 0.1
ATGCTGTC: -0.09
AGAAAGAG: -0.176
CGACCCCG: 0.277
CGGAAGTA: 0.147
CACGAGTC: -0.0601
CACGATAG: -0.0753
AAGTTGTA: -0.032
ACACTATA: -0.0541
AGACTCGG: -0.0397

Sample 4
Target: Ras GTPase-activating protein-binding protein 1, RRM domain (G3BP1, Homo sapiens, UniProt Q13283)
UniProt Q13283, sequence (whole entry, looked up): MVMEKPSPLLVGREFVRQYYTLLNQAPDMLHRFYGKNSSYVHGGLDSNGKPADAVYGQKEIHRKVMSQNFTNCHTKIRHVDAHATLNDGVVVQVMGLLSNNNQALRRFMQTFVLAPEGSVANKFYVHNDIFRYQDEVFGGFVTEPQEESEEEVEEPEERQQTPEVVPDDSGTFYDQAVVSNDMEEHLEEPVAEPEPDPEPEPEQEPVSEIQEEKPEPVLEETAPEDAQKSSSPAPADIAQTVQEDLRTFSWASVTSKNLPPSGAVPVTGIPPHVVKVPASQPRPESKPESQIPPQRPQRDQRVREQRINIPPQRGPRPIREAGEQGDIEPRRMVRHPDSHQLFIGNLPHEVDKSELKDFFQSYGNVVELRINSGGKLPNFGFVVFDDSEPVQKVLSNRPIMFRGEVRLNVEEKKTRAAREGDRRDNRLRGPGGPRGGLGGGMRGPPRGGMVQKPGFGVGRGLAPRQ
Technique: RNA Bind-n-Seq
Form: RNA
Sample: in vitro
Concentration: 1 µM
Setting: whole 134-nt RNA, ends assumed
Together with: 150 mM KCl
Relative to: input library
Reading: higher = stronger binding
Endpoint: log2 enrichment
All sequences stand within: GGGAGUUCUACAGUCCGACGAUC … UGGAAUUCUCGGGUGUCAAGG
CUCCAGAAAGCAGUGGGGCCUGAGAUCACCAAGACAGACCUGGUCCCUGCCUUCCAGAACCUGAUGAAAGACUGUGAGGCCGAGGUGAGG: -0.386
UGGGAGGUGGAUUUUGUUUAUUUUUUUAGCUCAUUUCCAGGGGUGGGAAUUUUUUUUUAAUAUGUGUCAUGAAUAAAGUUGUUUUUGCAA: 1.4
ACCAUGCAGGUGGGCAUCUUUGGGAAGUGGGGCAAGGGGGGGAAAGGGAGGGGGGUAACACUUUGGGAACAGGUGGUCCCAGGUCGUUUC: -0.181
UGGGAGGUGGAUUUUGUUUAUGUUUUUAGCUCAUUUCCAGGGGUGGGAAUUUUUUUUUAAUAUGUGUCAUGAAUAAAGUUGUUUUUGAAA: 1.35
CUGUGCUACACAUCGUAUGUACCGAAUCAAACCCCCCCAAACCCCCCCAAACCCCCCCAAAAAAGUAUUAUGUUACGCCGUUCGGAUCUG: -0.309
ACUGAGGUACUGCCCUCCCCUGCCCCCUACCCUCUCCCUUGUCCCUCUACCCCGUUCCUCCCCUUCCCUCCAUUCCCUUUCCCCAACCUG: -0.284
GCAGGAAGUAAAAACAAAUGGAAAUGCUUCGGAUAGUCGCAGGGGUGGGGGUUGCUAAGGAAAGGGUGGGAUGGGAGUGGGUAAAGAGUU: 0.784
GUCCUGUGCUACACAUCGUAUGUACCGAAUCGGGGCCCCCGGCCCCCGGGCCCCCGGGAAAGUAUUAUGUUACGCCGUUCGGAUCUGCAC: -0.568

Sample 5
Target: CCNF, cyclin fold, Cln2 fusion (human)
Technique: yeast growth competition, sequencing
Sample: yeast
Setting: strong parent motif
Relative to: not given
Reading: higher = stronger binding
Endpoint: normalised enrichment score
Starting sequence: PKN2 docking peptide (human); VSAVRKLDFSDTM
VSPVRKLDFSDTM [A3P]: 5.17
VSAVRKLVFSDTM [D8V]: 8.16
VSHVRKLDFSDTM [A3H]: 5.62
VSAVRKLDMSDTM [F9M]: 6.2
VGAVRKLDFSDTM [S2G]: 7.11
VSWVRKLDFSDTM [A3W]: 5.45
VSAVRKLDFSDNM [T12N]: 7.1
VSAVRKLDFSETM [D11E]: 6.81
VSAVRKTDFSDTM [L7T]: -0.237
VSATRKLDFSDTM [V4T]: 5.72
VSAVRWLDFSDTM [K6W]: 6.78
VSAVRKLLFSDTM [D8L]: 8.8
VSAVRKLDFQDTM [S10Q]: 7.18
VSMVRKLDFSDTM [A3M]: 5.47
VSAVRKLDFSCTM [D11C]: 7.35

Sample 6
Target: Centromere-binding protein 1, full length, N-terminal tag (CBF1, Saccharomyces cerevisiae, UniProt P17106, residues 1-351)
UniProt P17106, sequence (whole entry, looked up): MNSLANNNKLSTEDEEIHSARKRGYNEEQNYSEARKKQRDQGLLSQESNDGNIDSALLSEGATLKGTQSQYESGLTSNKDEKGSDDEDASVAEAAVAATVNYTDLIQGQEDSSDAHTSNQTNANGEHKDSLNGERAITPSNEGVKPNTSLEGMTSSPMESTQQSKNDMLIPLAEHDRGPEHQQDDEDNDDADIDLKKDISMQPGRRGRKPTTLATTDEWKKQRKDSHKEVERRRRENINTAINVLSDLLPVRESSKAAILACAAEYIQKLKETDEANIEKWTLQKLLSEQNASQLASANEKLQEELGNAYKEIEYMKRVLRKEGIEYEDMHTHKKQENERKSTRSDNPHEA
Technique: protein-binding microarray
Form: double-stranded DNA, one strand shown
Sample: in vitro
Concentration: 0.8 µM
Setting: whole 60-bp probe, no competitor
Reading: higher = stronger binding
Endpoint: fluorescence intensity
All sequences stand within: … GTCTTGATTCGCTTGACGCTGCTG
CTACCCCAGAGACCTCAGCTGAGATAAGTAATATTC: 460 a.u.
CTAGGTTCTTAAGATCACGTTAGCATCCTGTTGTTC: 1300 a.u.
GAAGGTAATCCCACCCATGTGGCCGTGCCATTCTAG: 542 a.u.
CTACTTGCTATAGATCACGCACCCTTTTGGCAATTC: 1160 a.u.
CTAGTGAGCGTGCGGCTGATGGTCCATCACGGTTTC: 511 a.u.
GAACTAAACAATGCAAACGTGTTTTTTCACTTGTAG: 549 a.u.
GAAGTAAAATAGGTAGACACCACGTATTGGCGATAG: 540 a.u.
GAAAGGCGGTTTAATTACGTGAAAAAATCCTACTAG: 543 a.u.
CTAGAAATTTTACGTGACACCATCATTTTACTTTTC: 562 a.u.
CTATTCTTTCATTGTGACATCAAAATGTTTTTATTC: 594 a.u.
CTACTTGGTTCGTGTCACGTAGTTACCTCACTCTTC: 863 a.u.
GAATTACCAAAGCTAAACGTGTCCGCCGCATTATAG: 503 a.u.
CTACTGTAAACAATTCAACTGACATTAGATACATTC: 558 a.u.
CTAGAAAATAATAGAGCCGTGATTTTAATTTCATTC: 625 a.u.
CCTAACTACTATAATGACGTCAAATAGCTTCGTACA: 495 a.u.
GAAAGAAGACCGTCGCTGGTGGTGCTTACACTGTAG: 496 a.u.
GAAGATCCGGAATTAAACGTGGACCCTCGAGCGTAG: 510 a.u.

A few entries again (sample 5):
VGAVRKLDFSDTM [S2G]: 7.11
VSWVRKLDFSDTM [A3W]: 5.45
VSAVRKLDFSDNM [T12N]: 7.1
VSAVRKLDFSETM [D11E]: 6.81
VSAVRKTDFSDTM [L7T]: -0.237
VSATRKLDFSDTM [V4T]: 5.72
VSAVRWLDFSDTM [K6W]: 6.78
VSAVRKLLFSDTM [D8L]: 8.8
VSAVRKLDFQDTM [S10Q]: 7.18
VSMVRKLDFSDTM [A3M]: 5.47
